Experimental data pooled from the literature.
Protocols differ between the studies behind these lines. ± gives the spread as reported.
Chain of UniProt P28482 (whole entry, looked up): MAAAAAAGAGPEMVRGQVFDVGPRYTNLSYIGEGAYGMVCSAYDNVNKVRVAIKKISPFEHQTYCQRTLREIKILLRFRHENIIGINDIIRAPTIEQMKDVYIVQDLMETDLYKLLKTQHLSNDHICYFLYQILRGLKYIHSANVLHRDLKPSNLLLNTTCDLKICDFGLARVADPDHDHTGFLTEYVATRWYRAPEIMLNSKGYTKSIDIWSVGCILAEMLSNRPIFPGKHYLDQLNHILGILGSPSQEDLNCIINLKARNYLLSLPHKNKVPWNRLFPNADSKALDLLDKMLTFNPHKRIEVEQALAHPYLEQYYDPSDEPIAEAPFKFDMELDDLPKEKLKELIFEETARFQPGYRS
Chain of UniProt Q12809 (whole entry, looked up): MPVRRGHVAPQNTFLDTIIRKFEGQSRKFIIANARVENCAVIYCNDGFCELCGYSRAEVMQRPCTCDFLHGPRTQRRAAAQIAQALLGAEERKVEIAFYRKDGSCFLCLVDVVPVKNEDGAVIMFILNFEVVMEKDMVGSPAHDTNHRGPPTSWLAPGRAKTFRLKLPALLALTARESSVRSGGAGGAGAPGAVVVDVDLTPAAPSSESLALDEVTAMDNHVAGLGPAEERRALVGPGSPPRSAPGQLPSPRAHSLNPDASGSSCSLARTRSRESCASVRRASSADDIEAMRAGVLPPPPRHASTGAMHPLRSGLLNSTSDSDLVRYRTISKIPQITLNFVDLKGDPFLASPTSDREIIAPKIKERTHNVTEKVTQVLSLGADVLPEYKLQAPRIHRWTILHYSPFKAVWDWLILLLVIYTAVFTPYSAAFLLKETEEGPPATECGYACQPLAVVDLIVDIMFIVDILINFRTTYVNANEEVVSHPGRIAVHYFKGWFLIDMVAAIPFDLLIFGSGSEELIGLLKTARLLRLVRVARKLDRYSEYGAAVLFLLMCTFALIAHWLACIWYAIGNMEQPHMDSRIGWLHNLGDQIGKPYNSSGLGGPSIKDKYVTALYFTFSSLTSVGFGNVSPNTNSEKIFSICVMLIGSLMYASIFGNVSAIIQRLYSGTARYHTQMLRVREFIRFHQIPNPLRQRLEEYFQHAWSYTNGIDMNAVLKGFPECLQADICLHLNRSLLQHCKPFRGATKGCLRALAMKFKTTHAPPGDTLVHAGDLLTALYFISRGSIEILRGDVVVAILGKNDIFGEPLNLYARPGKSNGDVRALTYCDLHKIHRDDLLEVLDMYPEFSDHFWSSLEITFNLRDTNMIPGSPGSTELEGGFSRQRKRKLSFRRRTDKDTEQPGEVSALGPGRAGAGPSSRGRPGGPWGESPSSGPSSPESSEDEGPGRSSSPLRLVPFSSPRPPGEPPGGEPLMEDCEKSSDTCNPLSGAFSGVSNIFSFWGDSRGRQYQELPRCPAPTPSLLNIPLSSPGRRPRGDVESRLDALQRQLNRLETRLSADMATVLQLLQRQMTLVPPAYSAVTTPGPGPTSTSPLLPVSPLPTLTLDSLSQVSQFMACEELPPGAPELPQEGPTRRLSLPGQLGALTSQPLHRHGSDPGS

`COc1ccccc1-c1n[nH]c2nc(NC3CCN(C(=O)Cc4ccc(F)cc4F)CC3)ncc12` gave a relative abundance of 0.93 (bead binding, competition bead pull-down, item: LINJ.30.1440; Leishmania donovani axenic amastigote extract; 10 µM; reference: vehicle).
`CC[C@H](C)[C@H](NC(=O)[C@H](CCCCN)NC(=O)CNC(=O)[C@H](CC(C)C)NC(=O)[C@H](Cc1ccccc1)NC(=O)[C@H](CCCCN)NC(=O)[C@H](CO)NC(=O)[C@H](Cc1ccccc1)NC(=O)[C@H](Cc1c[nH]c2ccccc12)NC(=O)[C@H](CCC(N)=O)NC(=O)[C@@H](NC(=O)[C@H](Cc1ccccc1)NC(=O)CCCCCNC(=O)CN1CCN(CC(=O)O)CCN(CC(=O)O)CCN(CC(=O)O)CC1)C(C)C)C(=O)N[C@@H](CCC(=O)O)C(=O)N1CCC[C@H]1C(=O)N[C@@H](CC(=O)O)C(=O)N[C@H](C(=O)N[C@@H](CO)C(=O)N[C@@H](CCC(N)=O)C(=O)N[C@H](C(=O)N[C@@H](CCC(N)=O)C(=O)N[C@@H](CC(=O)O)C(=O)N1CCC[C@H]1C(=O)N[C@@H](CC(N)=O)C(=O)N[C@@H](CC(=O)O)C(=O)N[C@@H](CCC(N)=O)C(=O)N[C@@H](Cc1ccc(O)cc1)C(=O)N[C@@H](CCC(=O)O)C(=O)N1CCC[C@H]1C(=O)N[C@@H](Cc1ccccc1)C(=O)O)C(C)C)C(C)C` [copper-64 labelled] gave a tissue uptake of 0.12 ± 0.02 %ID/g (BALB/c mice, male, CT26 tumour-bearing, brain; 2 h, vehicle-treated).
`O=C([O-])CNC(=O)CN1CCN(CC(=O)NCC(=O)[O-])CCN(CC(=O)NCC(=O)[O-])CCN(CC(=O)NCC(=O)[O-])CC1.[177Lu+3]` gave a tissue uptake of 0.007 ± 0.003 % injected dose/g (Sprague-Dawley rat, heart; intravenous (tail vein), dose not given, 2 h).
`CC(C)C[C@@H](NC(=O)[C@@H](CCCNC(=N)N)NC(=O)[C@@H](Cc1c[nH]cn1)NC(=O)[C@@H](Cc1c[nH]c2ccccc12)NC(=O)[C@@H](Cc1c[nH]cn1)NC(=O)[C@@H](Cc1ccccc1)NC(=O)[C@H](NC(=O)[C@@H](Cc1ccc(O)cc1)NC(=O)CNC(=O)CNC(=O)CCOCCOCCOCCNC(=O)CN1CCN(CC(=O)O)CCN(CC(=O)O)CC1)[C@H](C)O)C(=O)N[C@H](CC(N)=O)C(=O)N1CCC[C@@H]1C(=O)O` [gallium-68 labelled] has a tissue uptake of 0.63 ± 0.12 %ID/g (gamma counting; C57BL/6 mice, male, liver; intravenous, 1.85 MBq, 120 min).
The tissue uptake of `CC[C@H](C)[C@H](NC(=O)[C@H](CCCNC(=N)N)NC(=O)[C@H](CCCCN)NC(=O)[C@H](Cc1ccc(O)cc1)NC(=O)[C@H](CC(=O)O)NC(=O)[C@H](C)NC(=O)CNC(=O)CCOCCOCCOCCNC(=O)CN1CCN(CC(=O)O)CCN(CC(=O)O)CCN(CC(=O)O)CC1)C(=O)N[C@H](C(=O)N[C@@H](CC(C)C)C(=O)N[C@@H](CCCCN)C(=O)N[C@H](C(=O)N[C@@H](CC(N)=O)C(N)=O)C(C)C)[C@@H](C)O` [copper-64 labelled] is reported as 1.93 ± 0.354 %ID/g (ex vivo gamma counting; C57BL/6J male mice, B16-F10 tumour, spleen; intravenous, 1.85 MBq, 40 min).
The inhibition of `COc1cc2c(cc1NC(=O)c1cncn1C)C[C@H]1[C@H]3CCCC[C@@]23CCN1C` is reported as 27% (KCNH2 (Homo sapiens, UniProt Q12809); ligand displacement, radioligand; 10 µM).
`CN1Cc2cc(Cl)ccc2-n2c(nnc2C2CCN(c3cccc([18F])n3)CC2)C1` gave a tissue uptake of 4.85 ± 0.85 %ID/g (C57BL/6 mouse male, lung; intravenous, 3.7 MBq, 30 min).
For `O=C1NC2(CC2)COc2ncc(F)cc2[C@H]2COCCN2c2ccn3ncc1c3n2`, “pancreatic amylase activity” read 1550 ± 398 U/L (Sprague-Dawley rat, female, serum; oral, 2.5 mg/kg/day, 4 weeks daily, end of recovery period).
`CSCC[C@H](NC(=O)CNC(=O)[C@H](CCCCN)NC(=O)[C@H](CC(C)C)NC(=O)[C@@H]1CCCN1C(=O)[C@H](CO)NC(=O)[C@H](Cc1c[nH]cn1)NC(=O)[C@H](Cc1c[nH]c2ccccc12)NC(=O)[C@H](CCCNC(=N)N)NC(=O)[C@H](CC(C)C)NC(=O)[C@H](CCCNC(=N)N)NC(=O)[C@H](Cc1c[nH]c2ccccc12)NC(=O)[C@H](CS)NC(=O)CCCCCNC(=O)CN1CCN(CC(=O)O)CCN(CC(=O)O)CCN(CC(=O)O)CC1)C(=O)O` [copper-64 labelled] has a tissue uptake of 2.18 %ID/g (ex vivo biodistribution; C57BL/6J mice bearing B16-F10 tumours, thymus; intravenous, 1.85 MBq, 2 h).
The tissue uptake of `C[C@H](O)[C@@H](NC(=O)[C@H]1CCCN1C(=O)[C@@H](CCCCN)NC(=O)[C@@H](CO)NC(=O)[C@@H](Cc1ccc(O)cc1)NC(=O)[C@@H](CC(N)=O)NC(=O)CCOCCOCCOCCNC(=O)CN1CCN(CC(=O)O)CCN(CC(=O)O)CCN(CC(=O)O)CC1)C(=O)N[C@H](CC(=O)O)C(=O)N[C@H](CCCNC(=N)N)C(=O)N[C@H](CCC(N)=O)C(=O)N[C@H](Cc1ccc(O)cc1)C(=O)N[C@H](Cc1c[nH]cn1)C(=O)N[C@H](Cc1ccccc1)C(N)=O` [copper-64 labelled] is reported as 0.02 %ID/g (C57BL/6J mice, brain; intravenous, 1.85 MBq, 1.333 h, radiolabelled).
`CS(C)(=O)=Nc1ccc(-c2ccc(-c3nc4cc(O[C@@H]5CO[C@H]6[C@@H]5OC[C@H]6O)[nH]c4cc3F)cc2)cc1` gave an inhibition of 19% (MAPK1 (Homo sapiens, UniProt P28482); enzyme activity, inhibitor; 10 µM).
`CCCC[C@H]1C(=O)N(C)[C@@H](CCCC)C(=O)N[C@@H](CCCNC(=O)CN2CCN(CC(=O)O)CCN(CC(=O)O)CCN(CC(=O)O)CC2)C(=O)N[C@H](C(=O)NCC(N)=O)CSCC(=O)N[C@@H](Cc2ccc(O)cc2)C(=O)N(C)[C@@H](C)C(=O)N[C@@H](CC(N)=O)C(=O)N2CCC[C@H]2C(=O)N[C@@H](Cc2c[nH]cn2)C(=O)N[C@@H](CC(C)C)C(=O)N(C)CC(=O)N[C@@H](Cc2c[nH]c3ccccc23)C(=O)N[C@@H](CO)C(=O)N[C@@H](Cc2c[nH]c3ccccc23)C(=O)N1C` [gallium-68 labelled] gave a tissue uptake of 4.35 ± 0.9 %ID/g (NOD/SCID mice with CHO-hPD-L1 xenograft, skin; 10 min post injection).

For quick reference, copied from above:
`O=C([O-])CNC(=O)CN1CCN(CC(=O)NCC(=O)[O-])CCN(CC(=O)NCC(=O)[O-])CCN(CC(=O)NCC(=O)[O-])CC1.[177Lu+3]` gave a tissue uptake of 0.007 ± 0.003 % injected dose/g (Sprague-Dawley rat, heart; intravenous (tail vein), dose not given, 2 h).
`CC(C)C[C@@H](NC(=O)[C@@H](CCCNC(=N)N)NC(=O)[C@@H](Cc1c[nH]cn1)NC(=O)[C@@H](Cc1c[nH]c2ccccc12)NC(=O)[C@@H](Cc1c[nH]cn1)NC(=O)[C@@H](Cc1ccccc1)NC(=O)[C@H](NC(=O)[C@@H](Cc1ccc(O)cc1)NC(=O)CNC(=O)CNC(=O)CCOCCOCCOCCNC(=O)CN1CCN(CC(=O)O)CCN(CC(=O)O)CC1)[C@H](C)O)C(=O)N[C@H](CC(N)=O)C(=O)N1CCC[C@@H]1C(=O)O` [gallium-68 labelled] has a tissue uptake of 0.63 ± 0.12 %ID/g (gamma counting; C57BL/6 mice, male, liver; intravenous, 1.85 MBq, 120 min).
